Measured values of several laboratories.
Lines come from different studies, so protocols differ. Converted amounts (≈) assume the structure as drawn.
UniProt Q04759, sequence (whole entry, looked up): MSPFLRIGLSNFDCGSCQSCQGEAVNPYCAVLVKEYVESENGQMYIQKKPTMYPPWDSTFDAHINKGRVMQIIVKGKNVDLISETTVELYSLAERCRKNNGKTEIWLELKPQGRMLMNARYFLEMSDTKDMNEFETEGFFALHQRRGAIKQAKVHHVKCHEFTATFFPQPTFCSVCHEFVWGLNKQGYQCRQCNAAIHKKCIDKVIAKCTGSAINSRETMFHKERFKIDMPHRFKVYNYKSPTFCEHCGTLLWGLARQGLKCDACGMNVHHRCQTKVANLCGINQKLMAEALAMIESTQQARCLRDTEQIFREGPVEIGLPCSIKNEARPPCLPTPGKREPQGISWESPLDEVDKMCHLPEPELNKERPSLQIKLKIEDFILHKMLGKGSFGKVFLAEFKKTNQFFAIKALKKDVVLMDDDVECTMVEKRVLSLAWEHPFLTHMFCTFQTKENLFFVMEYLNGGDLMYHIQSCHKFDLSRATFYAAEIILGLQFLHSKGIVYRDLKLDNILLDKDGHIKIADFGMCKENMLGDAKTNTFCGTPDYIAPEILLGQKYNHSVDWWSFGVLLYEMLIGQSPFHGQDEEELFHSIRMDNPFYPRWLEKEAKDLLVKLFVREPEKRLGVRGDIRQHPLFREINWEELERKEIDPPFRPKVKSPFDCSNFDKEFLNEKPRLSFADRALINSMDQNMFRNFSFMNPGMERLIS
UniProt Q8NG66, sequence (whole entry, looked up): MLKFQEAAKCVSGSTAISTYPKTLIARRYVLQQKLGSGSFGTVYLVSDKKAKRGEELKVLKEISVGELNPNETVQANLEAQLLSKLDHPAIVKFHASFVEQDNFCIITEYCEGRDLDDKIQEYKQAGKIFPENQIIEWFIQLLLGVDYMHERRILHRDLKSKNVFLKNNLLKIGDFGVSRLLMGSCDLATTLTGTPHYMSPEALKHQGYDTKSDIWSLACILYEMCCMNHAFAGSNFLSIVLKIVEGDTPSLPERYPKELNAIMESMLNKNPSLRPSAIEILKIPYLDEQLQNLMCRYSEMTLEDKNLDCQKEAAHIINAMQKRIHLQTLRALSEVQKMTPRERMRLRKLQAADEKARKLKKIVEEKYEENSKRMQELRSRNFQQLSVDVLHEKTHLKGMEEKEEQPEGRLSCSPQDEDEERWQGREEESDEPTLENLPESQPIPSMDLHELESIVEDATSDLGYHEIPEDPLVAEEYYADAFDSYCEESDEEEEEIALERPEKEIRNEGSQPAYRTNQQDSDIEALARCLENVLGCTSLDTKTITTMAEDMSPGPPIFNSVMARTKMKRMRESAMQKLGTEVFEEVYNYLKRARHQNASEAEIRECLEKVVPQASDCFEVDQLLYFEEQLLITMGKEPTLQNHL
UniProt O43148, sequence (whole entry, looked up): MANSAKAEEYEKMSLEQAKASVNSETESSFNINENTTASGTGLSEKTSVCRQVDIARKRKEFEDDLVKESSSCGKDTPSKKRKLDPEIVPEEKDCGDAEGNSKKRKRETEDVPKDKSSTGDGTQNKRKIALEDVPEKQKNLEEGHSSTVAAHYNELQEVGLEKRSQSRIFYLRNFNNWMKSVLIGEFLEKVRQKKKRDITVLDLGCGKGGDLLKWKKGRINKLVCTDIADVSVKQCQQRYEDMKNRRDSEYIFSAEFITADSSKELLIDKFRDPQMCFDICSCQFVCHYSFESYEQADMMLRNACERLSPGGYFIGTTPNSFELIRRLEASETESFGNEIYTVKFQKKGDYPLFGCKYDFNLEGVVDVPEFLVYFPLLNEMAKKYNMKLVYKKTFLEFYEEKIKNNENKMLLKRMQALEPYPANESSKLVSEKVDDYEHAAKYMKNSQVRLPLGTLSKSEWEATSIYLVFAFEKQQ
UniProt Q56UN5, sequence (whole entry, looked up): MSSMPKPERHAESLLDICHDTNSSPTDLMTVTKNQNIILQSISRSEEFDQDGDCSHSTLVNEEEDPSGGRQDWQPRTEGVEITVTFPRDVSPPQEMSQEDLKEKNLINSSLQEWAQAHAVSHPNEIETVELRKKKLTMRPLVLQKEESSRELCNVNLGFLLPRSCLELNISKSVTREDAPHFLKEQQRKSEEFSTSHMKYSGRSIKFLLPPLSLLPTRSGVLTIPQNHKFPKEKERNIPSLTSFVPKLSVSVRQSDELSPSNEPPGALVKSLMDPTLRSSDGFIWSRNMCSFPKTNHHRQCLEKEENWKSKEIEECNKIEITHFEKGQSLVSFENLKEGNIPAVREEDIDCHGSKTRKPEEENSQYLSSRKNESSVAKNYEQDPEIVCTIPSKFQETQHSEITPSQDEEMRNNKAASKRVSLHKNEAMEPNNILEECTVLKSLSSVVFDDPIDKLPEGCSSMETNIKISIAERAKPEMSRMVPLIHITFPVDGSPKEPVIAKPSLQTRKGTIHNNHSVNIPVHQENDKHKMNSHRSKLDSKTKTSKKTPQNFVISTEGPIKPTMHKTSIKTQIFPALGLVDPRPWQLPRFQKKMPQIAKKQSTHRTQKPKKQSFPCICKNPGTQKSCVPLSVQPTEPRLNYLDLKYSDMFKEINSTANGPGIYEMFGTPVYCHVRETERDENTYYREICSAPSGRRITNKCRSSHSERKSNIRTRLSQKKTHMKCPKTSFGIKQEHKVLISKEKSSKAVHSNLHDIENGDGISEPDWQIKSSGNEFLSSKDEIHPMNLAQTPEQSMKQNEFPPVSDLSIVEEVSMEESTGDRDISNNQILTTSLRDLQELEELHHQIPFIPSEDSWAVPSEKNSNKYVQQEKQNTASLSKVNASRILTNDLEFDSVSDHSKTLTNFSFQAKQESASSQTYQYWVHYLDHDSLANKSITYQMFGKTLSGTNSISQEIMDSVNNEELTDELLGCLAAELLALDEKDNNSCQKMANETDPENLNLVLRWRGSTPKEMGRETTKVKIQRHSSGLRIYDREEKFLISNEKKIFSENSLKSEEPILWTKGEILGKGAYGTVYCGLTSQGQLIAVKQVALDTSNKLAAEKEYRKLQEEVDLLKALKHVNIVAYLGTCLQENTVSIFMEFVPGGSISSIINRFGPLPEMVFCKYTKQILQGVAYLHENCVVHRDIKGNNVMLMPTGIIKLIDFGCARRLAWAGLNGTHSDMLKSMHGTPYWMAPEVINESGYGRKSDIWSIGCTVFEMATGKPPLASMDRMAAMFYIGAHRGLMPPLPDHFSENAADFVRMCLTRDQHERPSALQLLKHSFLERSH
UniProt Q00526, sequence (whole entry, looked up): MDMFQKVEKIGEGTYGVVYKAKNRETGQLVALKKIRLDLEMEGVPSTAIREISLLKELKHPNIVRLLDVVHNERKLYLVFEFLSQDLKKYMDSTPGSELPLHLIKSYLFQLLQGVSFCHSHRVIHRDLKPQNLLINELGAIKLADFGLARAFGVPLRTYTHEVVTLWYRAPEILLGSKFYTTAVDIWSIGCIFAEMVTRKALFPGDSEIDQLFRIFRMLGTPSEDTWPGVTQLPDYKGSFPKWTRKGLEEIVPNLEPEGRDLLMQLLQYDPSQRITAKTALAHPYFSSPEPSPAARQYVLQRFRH
UniProt P35372, sequence (whole entry, looked up): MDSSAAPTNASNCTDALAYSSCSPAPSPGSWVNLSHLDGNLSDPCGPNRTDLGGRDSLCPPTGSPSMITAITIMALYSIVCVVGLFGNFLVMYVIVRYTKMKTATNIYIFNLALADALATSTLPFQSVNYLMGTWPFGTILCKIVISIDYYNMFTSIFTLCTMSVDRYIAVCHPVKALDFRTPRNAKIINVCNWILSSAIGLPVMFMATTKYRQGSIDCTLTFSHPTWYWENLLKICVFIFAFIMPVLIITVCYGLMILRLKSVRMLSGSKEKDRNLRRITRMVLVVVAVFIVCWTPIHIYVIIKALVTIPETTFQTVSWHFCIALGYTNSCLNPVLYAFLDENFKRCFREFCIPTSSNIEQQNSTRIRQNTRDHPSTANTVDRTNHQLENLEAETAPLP
UniProt P28222, sequence (whole entry, looked up): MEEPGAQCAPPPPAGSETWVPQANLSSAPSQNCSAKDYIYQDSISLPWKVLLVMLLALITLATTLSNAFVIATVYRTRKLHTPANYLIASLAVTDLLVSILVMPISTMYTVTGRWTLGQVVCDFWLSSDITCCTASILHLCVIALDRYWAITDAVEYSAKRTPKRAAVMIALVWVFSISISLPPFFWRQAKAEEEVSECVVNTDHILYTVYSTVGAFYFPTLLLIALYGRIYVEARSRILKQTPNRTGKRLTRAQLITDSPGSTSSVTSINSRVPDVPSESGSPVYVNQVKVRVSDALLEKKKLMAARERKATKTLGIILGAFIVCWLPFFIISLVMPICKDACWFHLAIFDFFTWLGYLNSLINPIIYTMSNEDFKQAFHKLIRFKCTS
UniProt P18031, sequence (whole entry, unmodified, looked up): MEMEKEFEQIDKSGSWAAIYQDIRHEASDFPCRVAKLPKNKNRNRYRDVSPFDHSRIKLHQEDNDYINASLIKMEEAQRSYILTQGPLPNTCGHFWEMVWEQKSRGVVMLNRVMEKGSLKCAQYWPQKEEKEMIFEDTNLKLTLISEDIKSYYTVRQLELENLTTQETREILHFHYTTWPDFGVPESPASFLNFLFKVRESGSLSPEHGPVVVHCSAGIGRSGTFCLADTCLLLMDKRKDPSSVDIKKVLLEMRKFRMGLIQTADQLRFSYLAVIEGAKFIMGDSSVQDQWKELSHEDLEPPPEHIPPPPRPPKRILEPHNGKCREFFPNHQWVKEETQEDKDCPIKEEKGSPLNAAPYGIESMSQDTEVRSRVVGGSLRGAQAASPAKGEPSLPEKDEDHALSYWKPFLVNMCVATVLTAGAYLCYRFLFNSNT

COc1ncccc1-c1cnn2ccc(N3CCN(C(=O)OC(C)C)CC3)nc12
remaining binding (CDK3 (Homo sapiens, UniProt Q00526); binding, competition with immobilised ligand; 1 µM): 92%

CC[C@H](C)[C@H](NC(=O)[C@H](Cc1ccccc1)NC(=O)[C@H](CCC(=O)O)NC(=O)[C@H](CCCNC(=N)N)NC(=O)[C@H](C)NC(=O)[C@H](C)NC(=O)[C@H](CCC(N)=O)NC(=O)[C@H](CCC(=O)O)NC(=O)[C@H](CCC(=O)O)NC(=O)[C@H](CC(C)C)NC(=O)[C@H](Cc1ccc(O)cc1)NC(=O)[C@H](CO)NC(=O)[C@H](CO)NC(=O)[C@@H](NC(=O)[C@H](CC(=O)O)NC(=O)[C@H](CO)NC(=O)[C@@H](NC(=O)[C@H](Cc1ccccc1)NC(=O)[C@@H](NC(=O)CNC(=O)[C@H](CCC(=O)O)NC(=O)[C@H](C)NC(=O)CCc1c[nH]cn1)[C@@H](C)O)[C@@H](C)O)C(C)C)C(=O)N[C@@H](C)C(=O)N[C@@H](Cc1c[nH]c2ccccc12)C(=O)N[C@@H](CC(C)C)C(=O)N[C@H](C(=O)N[C@@H](CCCNC(=N)N)C(=O)NCC(=O)N[C@@H](CCCNC(=N)N)C(=O)N[C@@H](CCCCNC(=O)COCCOCCNC(=O)COCCOCCNC(=O)CC[C@H](NC(=O)CCCCCCCCCCCCCCCCC(=O)O)C(=O)O)C(=O)NCC(=O)NCC(=O)N[C@@H](CO)C(=O)N[C@@H](CCCCNc1c(NCCCCCN(O)C(=O)CCC(=O)NCCCCCN(O)C(=O)CCC(=O)NCCCCCN(O)C(C)=O)c(=O)c1=O)C(=O)O)C(C)C
clearance (rat, plasma; intravenous, 20 nmol/kg): 0.117 mL/min/kg

[2H]c1c([2H])c([C@]2([2H])CCCN2C(=O)C(C)(C)Oc2ccc3cn[nH]c3c2)c([2H])c([2H])c1C([2H])([2H])[2H]
remaining binding (PRKCQ (Homo sapiens, UniProt Q04759); binding, competition with immobilised ligand; 1 µM): 75%

CN1CCC[C@H]1c1cccnc1
inhibition (HTR1B (Homo sapiens, UniProt P28222); ligand displacement; 50 µM): 11.7%

C#Cc1ccc2c(c1)C(c1ccccn1)=NCc1c(-c3cnco3)ncn1-2
kinetic solubility (water; 80 min, 37 °C): 417 µg/mL (≈ 1190 µM)

C=C(C)[C@@H]1CC[C@@H](C)[C@@H]2CCC(C)=C[C@@H]21
ΔTm (PTPN1 (Homo sapiens, UniProt P18031); thermal stability, DSF): < 1 °C

N.N.[Cl][Pt][Cl]
inhibition (Z-138; cell growth or viability, ATP luminescence; 10 µM, 72 h): 100%

Nc1ncnc2c1ncn2[C@@H]1O[C@H](C[C@@H](N)CC[C@H](N)C(=O)O)[C@@H](O)[C@H]1O
inhibition (RNMT (Homo sapiens, UniProt O43148); enzyme activity, inhibitor; 0.7812 µM): 27.5%

COc1ccc(Nc2nn3c(-c4ccccc4)ccnc3c2C(=O)Nc2ccc(Cl)cc2)cc1
viability (Caco-2; cell growth or viability, MTT; 50 µg/mL, 48 h, serum-free): 16%

Cc1nn(C)cc1-c1nc2c(N3CCN(Cc4ccc(Cl)cc4)CC3)c(Cl)cnc2[nH]1
remaining binding (NEK11 (Homo sapiens, UniProt Q8NG66); binding, competition with immobilised ligand; 1 µM): 100%

C[C@H]1CN(CCCc2ccccc2)CCN1c1cccc(O)c1
Emax (OPRM1 (Homo sapiens, UniProt P35372); cAMP, agonist; OPRM1): 0%

CCCN1C[C@H](CSC)C[C@@H]2c3cccc4[nH]cc(c34)C[C@H]21
inhibition (Potassium/sodium hyperpolarization-activated cyclic nucleotide-gated channel 1 (Homo sapiens, UniProt O60741); ion current, inhibitor; 30 µM): 9.8%

N=c1c2c(-c3ccccc3)c(-c3ccccc3)n(Cc3ccccc3)c2ncn1[C@H]1CC[C@H](O)CC1
scaled CLint (metabolic stability; minipig, hepatocytes; 1 µM): 9 mL/min/kg

Nc1ncc(-c2nc(N3CCOCC3)nc(N3CCOCC3)n2)c(C(F)F)n1
remaining binding (MAP3K19 (Homo sapiens, UniProt Q56UN5); binding, competition with immobilised ligand; 10 µM): 41%

C#Cc1n[nH]c2c(-c3cn(C(C)c4ccccn4)c(=O)[nH]c3=O)cc(F)cc12 (stereo not drawn)
inhibition (RET (Homo sapiens, UniProt P07949, V804M); enzyme activity, inhibitor; 1 µM): 8.9%

Excerpt of the above:
COc1ncccc1-c1cnn2ccc(N3CCN(C(=O)OC(C)C)CC3)nc12
remaining binding (CDK3 (Homo sapiens, UniProt Q00526); binding, competition with immobilised ligand; 1 µM): 92%
